Experimental data gathered from unrelated publications.
Every numbered part comes from another study and shows a few of its results, in no order. Substitutions count along the parent as printed.

Study 1 — method: RNA Bind-n-Seq; form: RNA; medium: in vitro; concentration: 200 nM; notes: whole 134-nt RNA, ends assumed; together with: 150 mM LiCl; baseline: input library; reading: higher = stronger binding; all molecules: 7-deaza-guanosine replaces G
Target: Fragile X messenger ribonucleoprotein 1, C-terminal low-complexity region (Fmr1, Mus musculus, UniProt P35922)
Strand	log2 enrichment
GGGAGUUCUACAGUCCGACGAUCAUUCUUCAUUGAGGGUGAGGAUCUCCCAAUGGGAGACUGCUCUGAAAAGAGCAUGUGCUUUUUGAAUUAGAUAACCUACUAUAAUCAUGGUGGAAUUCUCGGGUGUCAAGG	-2.14
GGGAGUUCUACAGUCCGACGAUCCCUCAAGUCCUGUGCUACACAUCGUAUGUACCGAAUCGGAGGGGAGGGAGGGAAAGUAUUAUGUUACGCCGUUCGGAUCUGCACUUCCAGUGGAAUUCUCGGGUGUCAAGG	-0.467
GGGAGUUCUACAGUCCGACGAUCAGUCCUGUGCUACACAUCGUAUGUACCGAAUCGGGUUUUUUUGGGUUUGGGAAAGGGAAAGUAUUAUGUUACGCCGUUCGGAUCUGCACUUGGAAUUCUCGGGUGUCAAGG	-1.71
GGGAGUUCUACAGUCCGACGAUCAGUCCUGUGCUACACAUCGUAUGUACCGAAUCGGGUUUUGGGUUUUGGGGUUUUGGGGAAAGUAUUAUGUUACGCCGUUCGGAUCUGCACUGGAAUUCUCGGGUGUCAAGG	-0.415
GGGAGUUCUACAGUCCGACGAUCGCAGGAAGUAAAAUCAAAUGGAAAUGCUUCGGAUAGUGGCAGGGGUGGGGGUUGCUAAGGAAAGGGUGGGAUGGGAGUGGGUAAAGAGUUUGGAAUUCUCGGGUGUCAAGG	1.38
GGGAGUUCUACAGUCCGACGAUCACCAUGCAGGUGGGCAUCUUUGGGAAGUGGGGCAAGGGGGGGAUAAAAAGGGGGGUAACACUUUGGGAACAGGUGGUCCCAGGUCGUUUCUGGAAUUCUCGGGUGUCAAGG	0.984

Study 2 — method: DHFR PCA, deep sequencing; medium: yeast; together with: (+)-ABA 0.032 µM; baseline: wild-type fitted maximum; reading: higher = stronger binding
Target: ABI1, truncated, D143A, DHFR fusion (Arabidopsis thaliana)
Notes: methotrexate growth selection, single substitutions
Starting sequence: PYL1, truncated, DHFR fusion (Arabidopsis thaliana); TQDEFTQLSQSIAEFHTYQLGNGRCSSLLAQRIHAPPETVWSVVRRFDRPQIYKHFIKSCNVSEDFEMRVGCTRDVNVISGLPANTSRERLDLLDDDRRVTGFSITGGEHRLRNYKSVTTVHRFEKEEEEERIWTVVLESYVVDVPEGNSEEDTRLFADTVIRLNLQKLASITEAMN; partner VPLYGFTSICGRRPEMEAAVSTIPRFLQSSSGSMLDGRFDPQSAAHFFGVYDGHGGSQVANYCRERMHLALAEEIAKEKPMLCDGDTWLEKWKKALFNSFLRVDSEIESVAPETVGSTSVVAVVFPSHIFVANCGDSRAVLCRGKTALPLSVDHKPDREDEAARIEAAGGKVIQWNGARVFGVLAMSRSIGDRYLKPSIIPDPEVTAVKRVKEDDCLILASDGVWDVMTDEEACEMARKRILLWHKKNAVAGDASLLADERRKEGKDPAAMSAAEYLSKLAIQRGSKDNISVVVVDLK
Substitution	relative binding score
L29H	24.3%
S63F	-6.74%
E125W	10.6%
W134Y	75.4%
N177E	23.9%
T173Y	-9.27%

Study 3 — target: CCNB3, cyclin fold, Cln2 fusion (human); method: yeast growth competition, sequencing; medium: yeast; notes: weak parent motif; baseline: not given; reading: higher = stronger binding
Starting sequence: RB1 docking peptide (human); PKPLKKLRFDIEG
Substitution	normalised enrichment score
PKPFKKLRFDIEG [L4F]	0.495
PKPLKKLCFDIEG [R8C]	0.1
PGPLKKLRFDIEG [K2G]	-0.405
PKPLKNLRFDIEG [K6N]	-0.117
PKPLKKLRFDSEG [I11S]	0.0401
PKPLKKFRFDIEG [L7F]	0.0951

Mixed results
Substance	target	assay	test system	conditions	scale	measurement	result
PhoQ, residues 284 288 289 292 302 303 SSTLSG	PhoP, residues 12 14 15 18 19 FWNTL (Escherichia coli, UniProt P23836)	Sort-seq, item: YFP reporter	E. coli	PhoQ-PhoP variant library, together with: 10 µM Mg2+	baseline: high Mg2+ state, higher = stronger signaling	fold induction	0.836

Repeated from above (study 1):
Strand	log2 enrichment
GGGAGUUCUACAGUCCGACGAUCAGUCCUGUGCUACACAUCGUAUGUACCGAAUCGGGUUUUUUUGGGUUUGGGAAAGGGAAAGUAUUAUGUUACGCCGUUCGGAUCUGCACUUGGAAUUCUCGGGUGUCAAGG	-1.71
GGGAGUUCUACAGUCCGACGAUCAGUCCUGUGCUACACAUCGUAUGUACCGAAUCGGGUUUUGGGUUUUGGGGUUUUGGGGAAAGUAUUAUGUUACGCCGUUCGGAUCUGCACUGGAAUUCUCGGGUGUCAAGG	-0.415
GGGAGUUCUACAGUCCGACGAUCGCAGGAAGUAAAAUCAAAUGGAAAUGCUUCGGAUAGUGGCAGGGGUGGGGGUUGCUAAGGAAAGGGUGGGAUGGGAGUGGGUAAAGAGUUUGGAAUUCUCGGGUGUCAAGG	1.38
